Experimental data collected from several papers.
Lines come from different studies, so protocols differ. “And” joins repeats or separate records; there may be more than shown. Numbers after ± are the reported error.
Coatomer subunit beta' WD repeat domain: Coatomer subunit beta', WD repeat domain (Homo sapiens, UniProt P35606)
CILK1: Serine/threonine-protein kinase ICK (CILK1, Homo sapiens, UniProt Q9UPZ9)
Nuclear receptor subfamily 2 group C member 2 ligand-binding domain: Nuclear receptor subfamily 2 group C member 2, ligand-binding domain (Homo sapiens, UniProt P49116)
ATRX F284Y/K251R: Transcriptional regulator ATRX (ATRX, Homo sapiens, UniProt P46100, F284Y/K251R)

For `O=C(COP(=O)(O)O)[C@@H](O)[C@H](O)[C@H](O)COP(=O)(O)O`, “thermal stability ratio” read 0.546 (DNA-directed RNA polymerase II subunit RPB1 (Homo sapiens, UniProt P24928); thermal proteome profiling, measured: POLR2A; HepG2 cell lysate; concentration not given, 57 over 37 °C, mean; baseline: compound over control).
For `O=S(=O)(O)C1CCNCC1`, the fraction bound was 0 (SLC6A6 (Homo sapiens, UniProt P31641, Y138A); binding, microscale thermophoresis; 43.2 nM, fitted curve; higher = more binding).
`CCOc1ccc(NC(=O)O[C@H](Cn2nc(C(C)C)cc2C(C)C)C(C)C)cc1` — result for “ACh peak current”: 94 ± 4% (Neuronal acetylcholine receptor; alpha4/beta2 (Homo sapiens, UniProt P17787+P43681); ion current, potentiator, TEVC; 1 µM, low-sensitivity (α4)3(β2)2, with: ACh 10 µM; baseline: ACh alone).
`[O-][S+]1CCCCS1` (centres unmarked): “alpha rate constant” 0.0625 h⁻¹ (SOD1 (Homo sapiens, UniProt P00441, G94A); two-compartment model; SOD1 G93A transgenic mice, whole blood; iv, 10 mg/kg).
`CC(C)OCCn1c(=S)[nH]c(=O)c2[nH]ccc21` has an MPO activity of 108% and 91.4% and 116% (Myeloperoxidase (Mus musculus, UniProt P11247); mouse, zymosan or thioglycolate peritonitis, peritoneal fluid; 30 mg/kg; baseline: peritonitis vehicle).
With `O=P(O)(O)OC[C@H](O)CO` the Km was 578 ± 34 µM (glycerol-3-phosphate acyltransferase, mouse; substrate; mouse testis total membranes; pH 7.5, room temperature, with: palmitoyl-CoA).
For `Nc1ncnc2c1ncn2[C@@H]1O[C@H](COP(=O)(O)CP(=O)(O)OP(=O)(O)O)[C@@H](O)[C@H]1O`, the calcium influx was 100% and 85.7% and 97.5% (P2X purinoceptor 1 (P2RX1, Homo sapiens, UniProt P51575, K136A); calcium influx; 3.16 µM; baseline: ionomycin response).
For `O=c1nc(SCc2cc(F)cc(C(F)(F)F)c2)nc(SCc2ccc3nc(OCCN4CCOCC4)ccc3c2)[nH]1`, “mean linear DNA” read 0% (TOP2A (Homo sapiens, UniProt P11388); DNA cleavage; 15.6 µM).
Under “log2 fold change”, `N#Cc1ccc2c(-c3ccncc3)c(-c3ccc(F)cc3)nn2c1` is recorded as 0.547 (Serine/threonine-protein kinase CBK1 (CBK1, Candida albicans, UniProt Q5AP53); kinase binding, competitor, MIB/MS competition, measured: CBK1; Candida albicans cell lysate; 100 nM; baseline: DMSO).
Under “concentration for full inhibition”, `Nc1ncnc2c1ncn2[C@@H]1O[C@H](COP(=O)(O)OP(=O)(O)OP(=O)(O)O)[C@@H](O)[C@H]1O` is recorded as 0.6 to 0.7 mM (ATP-sensitive inward rectifier potassium channel 1 (Rattus norvegicus, UniProt P35560); channel activity, inhibitor, inside-out patch clamp; pH 7.2).
With `CC(=O)NCCCC[C@H](NC(=O)CNC(=O)CNC(=O)[C@H](CCCCNC(C)=O)NC(=O)CNC(=O)[C@H](CCCNC(=N)N)NC(=O)CNC(=O)[C@@H](N)CO)C(=O)NCC(=O)N[C@@H](CC(C)C)C(=O)NCC(N)=O` the binding stoichiometry was 1.2 ± 0.3 (BRD1 (Homo sapiens, UniProt O95696, R585F); ITC; concentration not given, 15 °C, with: peptide 2 mM).
`CC[C@@H]1[C@H](F)C(=O)N[C@@H]1COc1nccc2cc(C(N)=O)c(OC)cc12` gave an inhibition of -8% (MARK2 (Homo sapiens, UniProt Q7KZI7); ATP-site probe binding, ActivX profiling; THP-1 cell lysate; 0.01 mM, Lys1 site).
`O=C(/C=C\n1cnc(-c2cc(C(F)(F)F)cc(C(F)(F)F)c2)n1)NNc1cnccn1` — result for “cells with nuclear reporter”: 1.86% and 2.83% (Exportin-1 (XPO1, Homo sapiens, UniProt O14980); nuclear export, high content imaging; HeLa Kyoto reporter; 0.03 µM, 2 h).
The inhibition of `Cn1cc(-c2cnc3ccc(NC(=O)Nc4ccc(F)c(Br)c4)cc3n2)cn1` is reported as 9.5% (IKBKB (Homo sapiens, UniProt O14920); kinase binding, KiNativ profiling, measured: Lys1 peptide; PANC-1 lysate; 2.5 µM).
For `CCCC[C@H]1C(=O)N(C)[C@@H](CCCC)C(=O)N[C@@H](CCCCNC(=O)CN2CCN(CC(=O)O)CCN(CC(=O)O)CC2)C(=O)N[C@H](C(=O)NCC(N)=O)CSCC(=O)N[C@@H](Cc2ccc(O)cc2)C(=O)N(C)[C@@H](C)C(=O)N[C@@H](CC(N)=O)C(=O)N2CCC[C@H]2C(=O)N[C@@H](Cc2c[nH]cn2)C(=O)N[C@@H](CCC(=O)O)C(=O)N2C[C@H](O)C[C@H]2C(=O)N[C@@H](Cc2c[nH]c3ccccc23)C(=O)N[C@@H](CO)C(=O)N[C@@H](Cc2cn(CC(=O)O)c3ccccc23)C(=O)N1C` [gallium-68 labelled], the SUVmax was 11.8 (CD274 (Homo sapiens, UniProt Q9NZQ7); PET/CT; human, bone metastasis).
With `Nc1nc2c(ncn2[C@@H]2O[C@H](COP(=O)(O)OP(=O)(O)O)[C@@H](O)[C@H]2O)c(=O)[nH]1` the ΔG was -5.43 kcal/mol (GUK1 (Homo sapiens, UniProt Q16774, R137A); binding, ITC).
For `Cc1ccccc1C1CC(=O)c2c(C)nc(N)nc2C1` (centres unmarked), the fold enrichment was 0.895 (Coatomer subunit beta' WD repeat domain; binding, affinity selection mass spectrometry; baseline: other proteins in batch).
`C=CC(=O)N1CCC(COCC(=O)N2CCN(c3nc(-c4cnc(N)nc4C(F)F)nc(N4CCOC[C@@H]4C)n3)CC2)CC1` has a remaining binding of 75% (CILK1; KINOMEscan; 1 µM).
`CCC1=C(C)CN(C(=O)NCCc2ccc(S(=O)(=O)NC(=O)N[C@H]3CC[C@H](C)CC3)cc2)C1=O` has a koff of 9.51e-07 s⁻¹ (Nuclear receptor subfamily 2 group C member 2 ligand-binding domain; SPR imaging; 600 nM).
`CCN1CCC[C@H]1CNC(=O)c1c(O)c(Cl)cc(Cl)c1OC`: “log2 fold change” -0.074 (G-protein coupled receptor 87 (GPR87, Homo sapiens, UniProt Q9BY21); β-arrestin recruitment, TANGO luminescence, measured: GPR87; concentration not given; baseline: basal luminescence).
For `Nc1ncnc2c1ncn2[C@@H]1O[C@H](COP(=O)(O)OP(=O)(O)OP(=O)(O)O)[C@@H](O)[C@H]1O`, the normalized current was 0.898 and 0.882 and 0.971 (P2X purinoceptor 7 (P2rx7, Rattus norvegicus, UniProt Q64663, R125A); ion current, agonist, two-electrode voltage clamp; Xenopus laevis oocytes; 500 µM; baseline: highest concentration response).
`COc1cccc(OC[C@@H]2CN(CC(=O)N3CCc4ccccc43)CCO2)c1` has an inhibition of -6.2% (DRD5 (Homo sapiens, UniProt P21918); radioligand binding; concentration not given, with: [3H]SCH23390).
`CC1(C)CC2(C)OC(=O)NC2(C)c2ccccc21` (centres unmarked) has a fold enrichment of 0.729 (Coatomer subunit beta' WD repeat domain; binding, affinity selection mass spectrometry; baseline: other proteins in batch).
The Km of `Nc1nc2c(ncn2[C@@H]2O[C@H](COP(=O)(O)O)[C@@H](O)[C@H]2O)c(=O)[nH]1` is reported as 54.3 µM (GUK1 (Homo sapiens, UniProt Q16774); substrate, NADH-coupled; KCl 10 mM, with: ATP 2.5 mM).
`C[C@H](N)C(=O)N[C@@H](CCCNC(=N)N)C(=O)N[C@H](C(=O)N[C@@H](C)C(=O)N[C@@H](CCC(N)=O)C(=O)N[C@H](C(=O)N[C@@H](C)C(=O)N[C@@H](CCCNC(=N)N)C(=O)N[C@@H](CCCCN)C(=O)N[C@@H](CO)C(=O)O)[C@@H](C)O)[C@@H](C)O` has a binding entropy of 0.37 cal/mol/K (ATRX F284Y/K251R; isothermal titration calorimetry; concentration not given, pH 7.5, 25.0 °C).
With `CCCCC[C@H]1CN(c2cccc(OC(F)(F)F)c2)C(=O)CN1Cc1cncn1Cc1ccc(Br)cc1` the IC50 was 0.16 ± 0.02 µM (Cryptococcus neoformans farnesyltransferase; enzyme activity, inhibitor, fluorescence; with: 1 µM FPP, 0.5 µM dansylated peptide).
`c1ccc(C(NCc2cccnc2)(c2ccccc2)c2ccccc2)cc1`: “deactivation time constant” 1.7 ± 0.4 s (Potassium voltage-gated channel subfamily KQT member 1, with KCNE1 (KCNQ1, Homo sapiens, UniProt P51787); IKs; 300 pM, with KCNE1).
The Vmax of `O=C1OC(c2ccccc2)=N/C1=C\c1ccccc1` is reported as 0.059 mg/mL/min (Pancreatic alpha-amylase (Homo sapiens, UniProt P04746); inhibitor, Lineweaver-Burk; 300 ppm, with: starch substrate).
`O=C(O)c1ccc(Nc2ncc3c(n2)-c2ccc(Cl)cc2C(c2c(F)cccc2F)=NC3)cc1` has a remaining activity of 94% (p70S6K(h); kinase activity; 1 µM).
With `CCCC[C@H]1CN(c2cccc(OC(F)(F)F)c2)C(=O)CN1Cc1cncn1Cc1ccc(Br)cc1` the IC50 was 0.19 ± 0.06 µM (Cryptococcus neoformans farnesyltransferase; enzyme activity, inhibitor, fluorescence; with: 1 µM FPP, 0.5 µM dansylated peptide).
`O=C(O)[C@@H]1CCCN1c1ncnc2[nH]cnc12` (racemic): “log fold enrichment” -0.098 (E3 SUMO-protein ligase PIAS1 (PIAS1, Homo sapiens, UniProt O75925); binding, affinity selection mass spectrometry; baseline: other proteins in batch).
With `COc1cc(-c2cncc3c2CN(C)Cc2cc(N4CCNCC4)ccc2-3)cc(OC)c1OC` the remaining activity was 113% (CILK1; kinase activity; 1 µM, human enzyme, with: ATP 10 µM; baseline: DMSO control).
For `Cc1cccc(C)c1OCC(C)N` (centres unmarked), the koff was 1.44e-06 s⁻¹ (Nuclear receptor subfamily 2 group C member 2 ligand-binding domain; binding).
`C[S+](CC[C@H](N)C(=O)O)C[C@H]1O[C@@H](n2cnc3c(N)ncnc32)[C@H](O)[C@@H]1O` (some centres unmarked) gave a binding stoichiometry of 1.84 ± 0.118 sites (O-methyltransferase (Sorghum bicolor, UniProt A0A1B6PFV1); isothermal titration calorimetry; concentration not given, apo protein).
For `Cc1cccc(Nc2ccccc2C(=O)O)c1C`, the koff was 1.96e-07 s⁻¹ (Nuclear receptor subfamily 2 group C member 2 ligand-binding domain; SPR imaging; 600 nM).
With `C[C@H](N)C(=O)N[C@@H](CCCNC(=N)N)C(=O)N[C@H](C(=O)N[C@@H](CCCCN(C)C)C(=O)N[C@@H](CCC(N)=O)C(=O)N[C@H](C(=O)N[C@@H](C)C(=O)N[C@@H](CCCNC(=N)N)C(=O)N[C@@H](CCCCN)C(=O)N[C@@H](CO)C(=O)N[C@H](C(=O)NCC(=O)NCC(=O)N[C@@H](CCCCN)C(=O)N[C@@H](C)C(=O)N[C@@H](Cc1ccc(O)cc1)C(=O)O)[C@@H](C)O)[C@@H](C)O)[C@@H](C)O` the binding enthalpy was -5.46 kcal/mol (ATRX F284Y/K251R; isothermal titration calorimetry; concentration not given, pH 7.5, 25.0 °C).
For `Cc1nnc(NS(=O)(=O)c2ccc(N)cc2)s1`, the koff was 4.16e-07 s⁻¹ (Nuclear receptor subfamily 2 group C member 2 ligand-binding domain; SPR imaging; 600 nM).
`CC[C@H](C)[C@@H]1NC(=O)[C@H](Cc2ccc(O)cc2)NC(=O)CSC[C@@H](C(N)=O)NC(=O)CNC(=O)[C@H](Cc2c[nH]cn2)NC(=O)[C@H](CCCNC(=N)N)NC(=O)[C@H](CC(N)=O)NC(=O)[C@@H]2CCCN2C(=O)[C@H](Cc2ccccc2)NC(=O)[C@H]([C@@H](C)O)NC(=O)CNC(=O)[C@H](CC(C)C)NC(=O)[C@@H]2CCCN2C(=O)[C@H]([C@@H](C)O)NC(=O)[C@H](CCCCN)NC1=O` gave a -TΔS of 1.8 ± 1 kcal/mol (VPS35/VPS29 (Homo sapiens, UniProt Q96QK1+Q9UBQ0); binding, ITC; 25 °C, heterodimer).
`CCOC(=O)c1c(CSc2ccccc2)n(C)c2cc(Br)c(O)c(CN(C)C)c12.Cl` gave a koff of 1.16e-07 s⁻¹ (Nuclear receptor subfamily 2 group C member 2 ligand-binding domain; SPR imaging; 600 nM).
For `CC(=O)c1ccc2cc(S(=O)(=O)Nc3ccccn3)ccc2c1`, the log IC50 was 0.933 (STAT3 (Homo sapiens, UniProt P40763); tyrosine phosphorylation, inhibitor, ELISA, measured: phospho-Tyr705).
Under “percent of control”, `C1=C/COCc2cc(ccc2OCCN2CCCC2)Nc2nccc(n2)-c2cccc(c2)COC/1` is recorded as 63% (ACVR2B (Homo sapiens, UniProt Q13705); concentration not given).
For `CC(C)NC[C@H](O)COc1ccc(CCOCC2CC2)cc1.Cl`, the koff was 1.24e-07 s⁻¹ (Nuclear receptor subfamily 2 group C member 2 ligand-binding domain; SPR imaging; 600 nM).
`O=C1c2ccccc2CCN1CCCCN1CCN(c2cccc(Cl)c2Cl)CC1` has an inhibition of 99.5% (HTR1A (Homo sapiens, UniProt P08908); radioligand binding; concentration not given, with: [3H]8-OH-DPAT).
`CC(C)C[C@@H]1NC(=O)[C@H](C)NC(=O)CNC(=O)[C@H](CC(N)=O)NC(=O)[C@@H]2CCCN2C(=O)[C@H](Cc2ccc(O)cc2)NC(=O)[C@H](CCCNC(=N)N)NC(=O)[C@H](Cc2ccccc2)NC(=O)[C@@H](NC(=O)[C@H](CCCCN)NC(=O)[C@@H]2CCCN2C(=O)[C@H](CO)NC(=O)[C@H](C)NC(=O)[C@@H](N)Cc2ccc(O)cc2)CSSC[C@@H](C(=O)N[C@H](C(N)=O)[C@@H](C)O)NC(=O)[C@H](C)NC1=O` gave a -ΔG of 5.45 kcal/mol (Alpha-2-HS-glycoprotein, asialo (AHSG, Bos taurus, UniProt P12763); binding, isothermal titration calorimetry; pH 7.0, 25 °C, with: asialofetuin).
